{"data": "Measurements of several laboratories", "note": "Every numbered part comes from another study and shows a few of its results, in no order. Changes are numbered by the printed parent chain."}
{"data": "Series 1", "target": "Histone acetyltransferase KAT6A, winged helix 2, GST fusion (KAT6A, Homo sapiens, UniProt Q92794, residues 85-181)", "method": "protein binding microarray", "molecule type": "double-stranded DNA, one strand shown", "sample": "in vitro", "tested at": "not given", "notes": "8-mer, flanks averaged, mean of 2 arrays, mostly near background", "reference": "not given", "reading": "higher = stronger binding", "Construct (chain)": "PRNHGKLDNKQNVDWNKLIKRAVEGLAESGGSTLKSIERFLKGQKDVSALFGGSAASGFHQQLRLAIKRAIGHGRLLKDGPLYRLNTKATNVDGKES"}
{"Strand": "AGGCAAGA", "E-score": 0.00611}
{"Strand": "GAAGGGCA", "E-score": 0.076}
{"Strand": "CGCGCTGA", "E-score": -0.0907}
{"Strand": "TAAGCAAA", "E-score": 0.0086}
{"Strand": "TGCGTGAA", "E-score": 0.132}
{"Strand": "AAGTCTGG", "E-score": -0.166}
{"Strand": "CGGCACCC", "E-score": -0.0302}
{"Strand": "AAACCTGT", "E-score": -0.131}
{"Strand": "CCACGCTC", "E-score": -0.052}
{"Strand": "CAACTATG", "E-score": -0.0687}
{"Strand": "GGTCTACA", "E-score": -0.0467}
{"Strand": "CATGAACA", "E-score": -0.0447}
{"Strand": "ACCCCCGA", "E-score": -0.101}
{"Strand": "CATTGAGA", "E-score": -0.00412}
{"Strand": "ATGGACAA", "E-score": 0.0365}
{"Strand": "AGCAGCTG", "E-score": -0.00662}
{"Strand": "GATATTAC", "E-score": 0.00917}
{"Strand": "ACATGAAC", "E-score": -0.168}
{"Strand": "GCCGACAA", "E-score": 0.111}
{"data": "Series 2", "target": "RING finger protein unkempt homolog, zinc fingers 1-6, GST-SBP tag (UNK, Homo sapiens, UniProt Q9C0B0, residues 30-357)", "method": "RNA Bind-n-Seq", "molecule type": "RNA", "sample": "in vitro", "tested at": "not given", "notes": "RNA with constant flanks, human and mouse sites, ends assumed", "reference": "input RNA pool", "reading": "higher = stronger binding", "constant ends, left off below": "GGGAGUUCUACAGUCCGACGAUC … CAACAGAGGAUUGAGCAUCA", "sequence of UniProt Q9C0B0 (30-357, looked up)": "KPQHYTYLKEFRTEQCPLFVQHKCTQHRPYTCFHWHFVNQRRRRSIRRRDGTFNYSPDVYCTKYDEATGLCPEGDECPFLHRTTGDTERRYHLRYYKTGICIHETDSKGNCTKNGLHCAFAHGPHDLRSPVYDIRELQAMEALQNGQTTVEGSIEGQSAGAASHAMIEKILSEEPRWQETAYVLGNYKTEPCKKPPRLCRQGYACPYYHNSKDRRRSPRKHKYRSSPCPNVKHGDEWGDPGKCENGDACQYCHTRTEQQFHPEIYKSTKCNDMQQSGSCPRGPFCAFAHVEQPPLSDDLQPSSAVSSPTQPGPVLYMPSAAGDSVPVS"}
{"Strand": "AUGAGAGUCUCGGUGAGCUCCAAAGGGAGCAUCAGCACUCCAAAUUCUCCAGUGAAAAUGACUCUGAUUCCCAGCCCCAACUCACCCUUCCAAAAGGUGGGAAAACUAGCAAGCUCAGAU", "bound/input enrichment": "0.284 ratio"}
{"Strand": "ACUCGUUUGCUUUUUUUCUUUUUUUAACUAAGAGCUGUGUUCCUGGCUAGAGAAUUUCAUUAUAGGGAGCUGAGCCCCGGCCCAUAUGGGUGUACUGCUCGGAGACUGGGAGCAAGGGGU", "bound/input enrichment": "1.46 ratio"}
{"Strand": "CCUCCUUCCCCCCACCCAAUCCUUUUUUUUUUCUUUUUUGCUUUUCUUUUCUUUUUUUUUAGUUUUUAUUUACUUUACCUAGUAUGCCUUUUUUUAGUUGCUUCUCAAGUCAGAAAACUU", "bound/input enrichment": "94.5 ratio"}
{"Strand": "GAAGAAACCUUAUCCAGCCGAAGAAGGGAACUAAUUCAGAAGUUGAAGUCUUUCAUCAGCUUCUAUAGUGCUUUGCCUGGCUACAUCUGCAGCCAUAGCCCUGUGGCGGAAAACGACACC", "bound/input enrichment": "0.253 ratio"}
{"Strand": "AGUUAUUAGACUUGCUAAUACAAGCAUACAUGUGCAACAGCUACUGGAUACUGAUAGCUAUCAAACCUCAAAUUUAAAGAUUUUCCUUCAUGGAAAAGUUACUAUACUUUGCAAGAAACC", "bound/input enrichment": "0.406 ratio"}
{"Strand": "UCCACGGGAUUUAACAAAUGUUCAAAGACAUAUAUGCAUCAUUACACUCCUAUAACACAAUAGUUUUACUGUCUUAAGAAUCAUGCGUAGCCAGGCAGUGGUGUACACCUUUAAUCCCAG", "bound/input enrichment": "1.13 ratio"}
{"Strand": "UUUUUCCUGCCCAAAGGAGCCUACAUUUAUAAUACACUAAUGGAAUUUAUCAGGAGUGAAUAUAGGAAAAGAGGGUUCCAGGAGGUCGUCACUCCCAACAUCUUCAAUAGCCGGCUCUGG", "bound/input enrichment": "0.54 ratio"}
{"Strand": "CUGCUGUCCAAGAUCGAUGGCGUUGAGCAGCUGAACAACAUCCUCGUUAUCGGAAUGACCAAUAGACCAGAUUUGAUAGACGAAGCUCUCCUUCGACCCGGAAGACUGGAAGUUAAAAUG", "bound/input enrichment": "2.24 ratio"}
{"data": "Series 3", "target": "RNA binding protein fox-1 homolog 2, RRM domain, GST-SBP tag (RBFOX2, Homo sapiens, UniProt O43251-10, residues 100-194)", "method": "RNA Bind-n-Seq", "molecule type": "RNA", "sample": "in vitro", "tested at": "365 nM", "notes": "natural RNA segment, single round, ends assumed", "reference": "no-protein control", "reading": "higher = stronger binding", "constant ends, left off below": "GGGAGUUCUACAGUCCGACGAUC … UGGAAUUCUCGGGUGCCAA", "Target sequence (chain)": "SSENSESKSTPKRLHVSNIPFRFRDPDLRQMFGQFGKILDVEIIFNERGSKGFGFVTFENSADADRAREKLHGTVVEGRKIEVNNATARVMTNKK"}
{"Strand": "GAUAGUUAAAAUUUCACUGCCAGGUUUCUUCUGCCCACCCAAAAGAUCCAGUCUAUAAUUACAGAUUUUGUAAGAAAAAAUAUAUAUACACAUAACUGACUGGAAAGAAU", "RBNS enrichment (R)": 0.863}
{"Strand": "CCCCUUUUCUGAUCAUUCGUGCGCAGAGGGCCUCCCAGUAAUGCCACGCUCUCCAUGCUAGAGAGCCUUCUCUUUCCUCUGAGGUUUGAACUGAUGUUCUGUGUCUUCAC", "RBNS enrichment (R)": 0.321}
{"Strand": "UGGCCAGCUUCAUCGAACAAGUCGCCGUGUCUAUGACUAGAUCUACCCUGACUCUUAUUUGCUUGGGGGAAGGAGUGACUGGAGGAGGAACCUAGGAAGGGAACCAAGGA", "RBNS enrichment (R)": 0.684}
{"Strand": "UUACUGGGACACAAUCACCACUCAGCUAGAAUGGAGAUUCAAGGAAAUGGAAGGUACUAGAAACAGACUCCUCCAGCCUCCUCCCCAUAGAAUCCUAAGGGUGGGAAGAA", "RBNS enrichment (R)": 0.318}
{"Strand": "GUAGUCUCCUGGGUGUGUUUGGCUUGGCCUUGGCAUGGGCGCAGGCCCAGUGACAAAGACUCCUCUGGGCCUGGGGUGCAUCCUCCUCAGCCCCCAGGCCAGGUGAGGUC", "RBNS enrichment (R)": 1.47}
{"Strand": "CAACAUUCUUGCCAGAGUUCUUGGGAAACCUGUUUUUUUCUCUACUCUCCAUCUCUGCUGCUCUCAUGCUUUAAAUUGAUAAAAUAUGGGCUCAAAAAAAGAAAGCCGCC", "RBNS enrichment (R)": 0.345}
{"Strand": "CUUCCUGUCCCCCGACCCUAACAGGUGCCUUAAAAGGCCCUCUCCCACCCAAGGUGGGGGGGCCAGGGGGGCCUCACUUUCCGGCCCUAGACUUGGGUGCGGGAGAGUGG", "RBNS enrichment (R)": 0.253}
{"Strand": "UAGAAUUAAUGUCUUACUAAAGUGCCACAAUUAUUUUUUAAGUAGCUCAGUACAAAUUAAUUUAAGUAAAAAACGUUUUAGAAUUUCAAAUAUCCUAAAAUAGGAAAUAC", "RBNS enrichment (R)": 0.629}
{"data": "Series 4", "target": "CCNA1, cyclin fold, Cln2 fusion (human)", "method": "yeast growth competition, sequencing", "sample": "yeast", "notes": "weak parent motif", "reference": "not given", "reading": "higher = stronger binding", "parent": "PKN2 docking peptide (human); VSAVRKLDFSDTM"}
{"Substitution": "T12W", "normalised enrichment score": 0.719}
{"Substitution": "A3E", "normalised enrichment score": -0.388}
{"Substitution": "S2N", "normalised enrichment score": 1.22}
{"Substitution": "A3Y", "normalised enrichment score": 0.149}
{"Substitution": "A3G", "normalised enrichment score": 0.102}
{"Substitution": "D11L", "normalised enrichment score": 0.329}
{"Substitution": "R5Y", "normalised enrichment score": 0.0928}
{"Substitution": "L7I", "normalised enrichment score": 0.259}
{"Substitution": "L7D", "normalised enrichment score": 0.0253}
{"Substitution": "D8S", "normalised enrichment score": 0.404}
{"Substitution": "D11I", "normalised enrichment score": 0.542}
{"Substitution": "A3N", "normalised enrichment score": -0.138}
{"Substitution": "S2T", "normalised enrichment score": 0.971}
{"Substitution": "D8W", "normalised enrichment score": -0.0183}
{"Substitution": "T12S", "normalised enrichment score": 1.08}
{"Substitution": "L7V", "normalised enrichment score": -0.00556}
{"Substitution": "R5V", "normalised enrichment score": 0.147}
{"Substitution": "D8F", "normalised enrichment score": -0.0545}
{"Substitution": "L7M", "normalised enrichment score": 0.0333}
{"Substitution": "D8Y", "normalised enrichment score": 0.139}
{"Substitution": "F9D", "normalised enrichment score": -0.0497}
{"Substitution": "T12G", "normalised enrichment score": 0.762}
{"Substitution": "L7N", "normalised enrichment score": 0.335}
{"Substitution": "K6A", "normalised enrichment score": 0.622}
{"Substitution": "R5G", "normalised enrichment score": -0.342}
